Published values pooled from the literature.
Every numbered part comes from another study and shows a few of its results, in no order. Positions count from the first letter of the parent shown.
UniProt P42679, sequence (whole entry, looked up): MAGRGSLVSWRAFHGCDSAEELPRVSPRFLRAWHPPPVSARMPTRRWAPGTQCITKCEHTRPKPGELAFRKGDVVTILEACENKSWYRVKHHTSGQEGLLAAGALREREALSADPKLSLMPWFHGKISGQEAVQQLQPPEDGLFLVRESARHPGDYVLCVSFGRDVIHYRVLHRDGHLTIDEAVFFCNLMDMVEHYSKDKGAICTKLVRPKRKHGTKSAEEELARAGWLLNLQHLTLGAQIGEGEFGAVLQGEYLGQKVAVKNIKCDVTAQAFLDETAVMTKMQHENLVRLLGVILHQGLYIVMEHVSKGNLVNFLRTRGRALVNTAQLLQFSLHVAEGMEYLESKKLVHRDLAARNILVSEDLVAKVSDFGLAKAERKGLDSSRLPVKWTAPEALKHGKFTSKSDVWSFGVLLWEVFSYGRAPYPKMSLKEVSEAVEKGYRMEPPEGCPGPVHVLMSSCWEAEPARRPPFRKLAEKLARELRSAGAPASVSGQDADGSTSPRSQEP

Sample 1
Target: Histone acetyltransferase KAT6A, winged helix 2, GST fusion (KAT6A, Homo sapiens, UniProt Q92794, residues 85-181)
Technique: protein binding microarray
Form: double-stranded DNA, one strand shown
Medium: in vitro
Concentration: not given
Setting: 8-mer, flanks averaged, mean of 2 arrays, mostly near background
Reference: not given
Direction: higher = stronger binding
Construct (chain): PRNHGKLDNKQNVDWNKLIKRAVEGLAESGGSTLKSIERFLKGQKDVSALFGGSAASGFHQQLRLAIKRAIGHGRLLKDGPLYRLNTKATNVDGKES
The E-score of `ACAAGTCT` is reported as -0.233.
`AACCGTCC` gave an E-score of -0.164.
`TAGAGTGA` has an E-score of -0.00785.
`AGAATAGC` has an E-score of -0.0577.
With `CAGACACG` the E-score was -0.0059.
For `GCATGAGC`, the E-score was 0.0416.
With `AACCACCG` the E-score was -0.136.
For `AGCTGCAT`, the E-score was -0.0796.

Sample 2
Target: Interferon regulatory factor 5, full length, phosphomimetic (IRF5, Homo sapiens, UniProt Q13568-2, residues 1-514, S451D/S453D/S456D/S462D)
Technique: protein-binding microarray
Form: double-stranded DNA, one strand shown
Medium: in vitro
Concentration: 940 nM top
Setting: 60-bp whole probe
Added: salmon DNA 0.4 mg/ml
Reference: random background probes
Direction: higher = stronger binding
Shared flanks, not repeated: GCCTAGCAC … GTCTTGATTCGCTTGACGCTGCTG
For `TCATGTTGTTTTTTGGTACTGTGCTAG`, “fitted relative affinity” read 1.29 z-score.
`TCATCTTCCCTTTTAAGACTGTGCTAG`: “fitted relative affinity” 1.02 z-score.
`GACGGACTGGACTATCCGGACGTGCTA`: “fitted relative affinity” -0.402 z-score.
For `TCATTTTTTCTTTTATTACTGTGCTAG`, “fitted relative affinity” read 2.14 z-score.
Under “fitted relative affinity”, `GACGAAATGGGGACTGGAGACGTGCTA` is recorded as 0.00343 z-score.
`TTACATCTCAGTCTCGATTAGTGCTAG` — result for “fitted relative affinity”: 3.7 z-score.
Under “fitted relative affinity”, `GACGGTTTCCTACTCCTGACGTGCTAG` is recorded as 0.933 z-score.
`GACCGACTGGGACTGGGGACGTGCTAG` — result for “fitted relative affinity”: -0.802 z-score.

Single results of other studies
P1: PafA, mature enzyme, eGFP fusion (Elizabethkingia meningoseptica, UniProt Q9KJX5); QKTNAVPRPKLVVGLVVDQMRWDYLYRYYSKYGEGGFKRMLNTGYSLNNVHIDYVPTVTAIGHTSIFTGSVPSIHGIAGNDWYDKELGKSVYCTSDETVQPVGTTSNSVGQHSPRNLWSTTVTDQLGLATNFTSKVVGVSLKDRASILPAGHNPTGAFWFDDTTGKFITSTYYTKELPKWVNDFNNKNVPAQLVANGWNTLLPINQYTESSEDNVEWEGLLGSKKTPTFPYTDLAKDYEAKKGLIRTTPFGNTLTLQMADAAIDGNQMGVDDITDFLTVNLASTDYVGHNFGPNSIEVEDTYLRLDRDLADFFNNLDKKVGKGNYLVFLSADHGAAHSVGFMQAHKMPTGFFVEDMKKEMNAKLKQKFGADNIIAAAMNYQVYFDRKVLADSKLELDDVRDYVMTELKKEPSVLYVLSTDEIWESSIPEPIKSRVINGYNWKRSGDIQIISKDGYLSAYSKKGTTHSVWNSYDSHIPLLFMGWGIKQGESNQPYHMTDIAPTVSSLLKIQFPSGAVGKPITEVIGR
For `PhoQ, residues 284 288 289 292 302 303 NLCILV`, the fold induction was 24.4 (PhoP, residues 12 14 15 18 19 TTLRV (Escherichia coli, UniProt P23836); Sort-seq, measured: YFP reporter; E. coli; PhoQ-PhoP variant library, added: 10 µM Mg2+; reference: high Mg2+ state, higher = stronger signaling).
`N/C(=N\[N+](=O)[O-])N/N=C\c1ccc(-c2cccc([N+](=O)[O-])c2)o1` has a remaining activity of 94.3% (Megakaryocyte-associated tyrosine-protein kinase (MATK, Homo sapiens, UniProt P42679); enzyme activity, inhibitor; 0.5 µM; reference: control).
`P1 S392V`: “oxyanion analog dissociation constant” 2.58 µM (tungstate, free oxyanion; microfluidic competitive inhibition; in vitro, cell-free expressed; not given, derived from inhibition constants, unchanged parent 2230 nM; lower = stronger binding).

Repeated from above (sample 2):
For `TCATGTTGTTTTTTGGTACTGTGCTAG`, “fitted relative affinity” read 1.29 z-score.
`TCATCTTCCCTTTTAAGACTGTGCTAG`: “fitted relative affinity” 1.02 z-score.
`GACGGACTGGACTATCCGGACGTGCTA`: “fitted relative affinity” -0.402 z-score.
